Experimental data of several laboratories.
Parts stem from different laboratories: compare values within a part only.

Series 1 — technique: protein-binding microarray; molecule type: double-stranded DNA, one strand shown; sample: in vitro; tested at: 250 nM; notes: 60-bp whole probe; with: salmon DNA 0.4 mg/ml; reference: random background probes; reading: higher = stronger binding; all sequences stand within: GCCTAGCAC … GTCTTGATTCGCTTGACGCTGCTG
Target: Interferon regulatory factor 7, full length, phosphomimetic (IRF7, Homo sapiens, UniProt Q92985, residues 1-503, S101K/S471D/S472D/S475D/S476D/S477D/S483D/S484D/S487D)
Residues (chain): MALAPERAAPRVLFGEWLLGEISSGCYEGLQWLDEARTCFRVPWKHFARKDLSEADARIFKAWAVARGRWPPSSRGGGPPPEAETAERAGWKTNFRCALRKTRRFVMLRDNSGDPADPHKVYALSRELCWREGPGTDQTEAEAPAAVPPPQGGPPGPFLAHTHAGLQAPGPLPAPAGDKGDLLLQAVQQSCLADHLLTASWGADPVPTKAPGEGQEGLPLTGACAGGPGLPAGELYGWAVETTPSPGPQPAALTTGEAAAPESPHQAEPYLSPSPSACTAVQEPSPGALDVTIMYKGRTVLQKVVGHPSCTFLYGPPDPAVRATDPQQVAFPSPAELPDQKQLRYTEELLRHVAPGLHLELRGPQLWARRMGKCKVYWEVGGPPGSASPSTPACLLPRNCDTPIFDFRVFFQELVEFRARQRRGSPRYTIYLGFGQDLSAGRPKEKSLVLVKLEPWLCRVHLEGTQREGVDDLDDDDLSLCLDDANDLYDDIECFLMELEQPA
Oligonucleotide | log fluorescence [z-score]
GACGGTTTGGACTATCGGGACGTGCTA | -0.256
TACGGTTTCCTTTCCCTGACGTGCTAG | 5.07
TCACATTTATATCTTTGACTGTGCTAG | 0.566
TCAATTTTCTGAATGCTACTGTGCTAG | 1.06
TCAACTTTCTTTAACATACTGTGCTAG | 0.44
TCACCTTGCATGTTTTTGACTGTGCTA | -0.0713
GGCGATATCGGGTATCGAGACGTGCTA | -0.638
GACGATCTCAGTTTCGTGACGTGCTAG | 1.61
GACGGTTTCAGTATCGGGACGTGCTAG | 2.92
AACGATCTCAGTCTCGAGACGTGCTAG | 0.568
TTAGATATCAGACAGGATTAGTGCTAG | -0.245
TTAGATATCGGGCATCGATTAGTGCTA | -0.105
GACGGTATCCTTATCCTGCCGTGCTAG | 0.0803
TACGATATCAGTATCGAGACGTGCTAG | 0.299
TTAGGTTTGGACTTTCGGTTAGTGCTA | 0.845
TTAGAACTGGGGACGGGATTAGTGCTA | -0.0666
TACTTTCTACGTCTGATTTTGTGCTAG | 1.72
GACGGTTTGGGGTTTCGGGACGTGCTA | 1.59
GAGGGTTTCCTTATCCTGACGTGCTAG | 1.8

Series 2 — technique: protein binding microarray; molecule type: double-stranded DNA, one strand shown; sample: in vitro; tested at: not given; reference: not given; reading: higher = stronger binding
Target: Histone acetyltransferase KAT6A, winged helix 2, GST fusion (KAT6A, Homo sapiens, UniProt Q92794, residues 85-181)
Notes: 8-mer, flanks averaged, mean of 2 arrays, mostly near background
Construct (chain): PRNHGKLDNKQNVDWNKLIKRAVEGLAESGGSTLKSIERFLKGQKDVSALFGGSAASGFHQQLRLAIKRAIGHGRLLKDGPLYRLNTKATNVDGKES
Oligonucleotide | E-score
ACGCTTAG | -0.122
GACCATAA | 0.0382
ACGCCTCC | -0.0101
GATCTACA | 0.0911
AACTACTT | -0.131
TGCTCCAA | 0.0786
CGCCGGTA | -0.0727
ATCACAGA | 0.041
CCGCTACG | 0.0517
ACAGCGCA | 0.215
AAATACCT | -0.127
AAAAAGGG | -0.0211
CTGATGTA | -0.089
GGCTCTAC | -0.127
GAACAAGC | -0.0127
TGGAGCAA | 0.122
ATTGCTGC | -0.0423
AGTAGACA | 0.0691
AAGTTAAT | 0.136
CAAGCCTG | -0.123
AGTAACTG | -0.148
ATATGGCG | -0.0448
GGCTGACC | 0.124
GTTATGAA | -0.142
CACCCCGG | 0.0645

Series 3 — technique: RNAcompete; molecule type: RNA; sample: in vitro; tested at: 20 nM; notes: 7-mer, probes averaged, single round; reference: mean of 7-mers; reading: higher = stronger binding
Target: PABPC1L2, full length, GST fusion (mouse, UniProt A0ABA7IW68)
Residues (chain): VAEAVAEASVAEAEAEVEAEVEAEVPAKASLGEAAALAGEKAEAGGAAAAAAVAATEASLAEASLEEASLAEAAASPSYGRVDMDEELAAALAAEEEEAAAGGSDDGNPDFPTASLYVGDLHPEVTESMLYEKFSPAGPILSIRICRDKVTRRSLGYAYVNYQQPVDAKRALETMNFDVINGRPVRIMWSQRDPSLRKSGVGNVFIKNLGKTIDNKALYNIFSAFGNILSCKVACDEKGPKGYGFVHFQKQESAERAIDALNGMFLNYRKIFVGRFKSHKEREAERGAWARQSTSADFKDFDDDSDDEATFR
Oligonucleotide | 7-mer Z-score
GCUUCGA | -0.19
CCGGCAU | -0.296
AUUAUUC | -0.17
AUAGCUC | -0.296
UUCGUAA | -0.34
AUGUUCU | -0.307
AACAUGC | 0.454
GGUUAGG | 0.0787
UGUACGA | -0.175
AGUCUAG | -0.0772
ACAUAAC | 0.122
CCAAAGC | -0.13
UACUAGC | -0.224
AUCCGAC | -0.267
UAAACUA | 0.68
UGGACGU | -0.0681
GUGGUUC | -0.0645
AUUAGCG | -0.05
CUUAGAG | -0.144
UGUCCCA | -0.264
CCUUACG | -0.389
UCCGUAC | -0.371
GCGAGAA | 0.135

Series 4 — technique: RNA Bind-n-Seq; molecule type: RNA; sample: in vitro; tested at: 365 nM; reference: no-protein control; reading: higher = stronger binding
Target: RNA binding protein fox-1 homolog 2, RRM domain, GST-SBP tag (RBFOX2, Homo sapiens, UniProt O43251-10, residues 100-194)
Notes: natural RNA segment, single round, ends assumed
Residues (chain): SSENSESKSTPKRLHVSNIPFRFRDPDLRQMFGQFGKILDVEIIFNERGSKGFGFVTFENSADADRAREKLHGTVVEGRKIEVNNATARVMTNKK
Oligonucleotide | RBNS enrichment (R)
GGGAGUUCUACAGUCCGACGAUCAAGACCCCAAAGGGCCCAGGCCAGGAGACUGUUAAAGUGAAAAGGCAAUCUAUGACUCACCUUGCUCUGCCAUCCCUGGCAGCCCCCACCGGUGUCCUGUUCCUGCCACAUGGAAUUCUCGGGUGCCAA | 0.172
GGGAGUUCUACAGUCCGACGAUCAUUUUUGUUUCAUUGUUUAAAAGUACUGAAAUGUUCCACCCUGUUAUGUUUUCCUGUACUAGAUGGCUAGGAUUCCAGAGAAUUACUAUAAAGUAUUUUCAACACACCUGUGGAAUUCUCGGGUGCCAA | 0.352
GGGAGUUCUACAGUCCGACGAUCGUAGUCCUAGCUACUCAGGAGGCUGAGGUGGAGGAUCACUUAAGCCUGAGAGGUCAAGGUUGCAAUGAGCCAUAAUCAUACCACUGCACUCCAGCCUGGGCAACAGAGUGUGGAAUUCUCGGGUGCCAA | 0.247
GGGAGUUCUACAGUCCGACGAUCGCCGGAGACAGGGUCUGCUGGAGCUGGGAGACGGCGCUGCAGAUAGAUGGCUACAGGAGCUUUUGGACUCACAGCCUCUGCUCUAGAGGUGUUGUGUAUGGGCUGCUAAUUGGAAUUCUCGGGUGCCAA | 0.287
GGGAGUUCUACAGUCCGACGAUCGCGCCUACCCGGGCCGCCCCCGCGGCCUGGCCCUCGGCGCGGGCUCCUUCCCGCUUCCCCCGACUUCACACGGCGGCUUCGGACCAACUCCCUCACUCCCGCCCGAGGGGUGGAAUUCUCGGGUGCCAA | 0.324
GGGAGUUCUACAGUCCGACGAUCGCCAAAGUUGUAGCUAAAUAUUUAUACACUUGUCUUGAAUUUUUUUCAGAUCCACUUAAAAUAUUUAGAAAAACGAGUUUUAUUCCUUAUGGGUCUUAUAGGGGAUAAAAUGGAAUUCUCGGGUGCCAA | 0.549
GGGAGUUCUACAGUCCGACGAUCUGCACAUCUGUAAAUGACUGUAUGGUUAUGAUUAUAGUACCACGAAAAAUCAUGUUAUUUUUUUUUAAGACACACACAAAAAGAUACUUAAAGACCAAAAACUGUGCUGGUGGAAUUCUCGGGUGCCAA | 0.545
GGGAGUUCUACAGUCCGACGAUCGUACCCUCUUGUCAAAAAGGCAUACAUUCAUAAUUGUACAUUCAGCAUUGUAAAUAAUCUUAUGAAACCUUUUUUGAUUGAAGCUAUUCAAAAUAAAAAUUUUAAUGAAUUGGAAUUCUCGGGUGCCAA | 0.862

Series 5 — technique: universal PBM; molecule type: double-stranded DNA, one strand shown; sample: in vitro; tested at: 600 nM; reading: higher = stronger binding
Target: Sal-like protein 4, full length isoform A (SALL4, Homo sapiens, UniProt Q9UJQ4, residues 1-1053)
Sequence of UniProt Q9UJQ4 (whole entry, looked up): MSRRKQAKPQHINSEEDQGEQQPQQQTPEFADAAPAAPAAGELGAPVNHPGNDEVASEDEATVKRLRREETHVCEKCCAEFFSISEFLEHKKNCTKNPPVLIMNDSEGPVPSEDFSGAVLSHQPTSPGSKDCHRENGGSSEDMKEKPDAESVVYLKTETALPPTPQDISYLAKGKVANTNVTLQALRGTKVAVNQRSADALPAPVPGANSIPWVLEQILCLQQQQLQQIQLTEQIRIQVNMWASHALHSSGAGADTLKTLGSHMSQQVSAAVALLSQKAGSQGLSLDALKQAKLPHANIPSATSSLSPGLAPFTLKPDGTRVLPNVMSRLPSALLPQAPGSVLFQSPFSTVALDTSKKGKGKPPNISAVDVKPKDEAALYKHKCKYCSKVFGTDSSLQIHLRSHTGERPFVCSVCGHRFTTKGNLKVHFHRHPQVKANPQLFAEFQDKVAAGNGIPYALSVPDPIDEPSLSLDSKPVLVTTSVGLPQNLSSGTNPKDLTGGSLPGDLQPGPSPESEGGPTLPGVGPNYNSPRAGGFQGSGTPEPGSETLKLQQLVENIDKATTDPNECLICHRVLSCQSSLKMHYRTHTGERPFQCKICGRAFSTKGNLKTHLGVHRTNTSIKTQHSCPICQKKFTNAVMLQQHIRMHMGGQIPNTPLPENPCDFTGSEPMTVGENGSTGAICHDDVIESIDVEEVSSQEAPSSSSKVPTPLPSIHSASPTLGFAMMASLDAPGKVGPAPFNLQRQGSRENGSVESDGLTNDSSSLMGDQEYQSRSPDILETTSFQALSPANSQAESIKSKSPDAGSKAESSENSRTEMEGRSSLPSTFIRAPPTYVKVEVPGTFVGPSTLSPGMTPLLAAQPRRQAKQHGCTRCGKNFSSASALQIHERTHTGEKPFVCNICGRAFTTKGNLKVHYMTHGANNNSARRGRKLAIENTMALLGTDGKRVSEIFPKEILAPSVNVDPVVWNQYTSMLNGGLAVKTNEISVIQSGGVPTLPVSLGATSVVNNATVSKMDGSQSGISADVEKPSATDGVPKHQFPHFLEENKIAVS
Notes: 8-mer, flanks averaged, mean of replicates
Oligonucleotide | E-score
ACACCTCG | -0.0956
AACTTCCG | -0.0563
AAGAGGCA | -0.0551
AAAACGTT | 0.14
AGTGTCAT | 0.202
CAGCATGA | -0.0732
ATCGAGTA | -0.0309
AGAGCTCG | -0.118
AAGTCCCA | -0.0378
GGAGGGCC | -0.357
ATGCTGGC | -0.0529
CAAGATCA | 0.0496
AAGATTGT | 0.168
CCATAATC | 0.232
GTCCTCCA | 0.0705
AACCCGGA | -0.296
CCTATGTC | 0.0203
AAACGTGC | -0.136

A few entries again (series 4):
Oligonucleotide | RBNS enrichment (R)
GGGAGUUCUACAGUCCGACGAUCGCGCCUACCCGGGCCGCCCCCGCGGCCUGGCCCUCGGCGCGGGCUCCUUCCCGCUUCCCCCGACUUCACACGGCGGCUUCGGACCAACUCCCUCACUCCCGCCCGAGGGGUGGAAUUCUCGGGUGCCAA | 0.324
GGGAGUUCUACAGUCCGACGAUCGUACCCUCUUGUCAAAAAGGCAUACAUUCAUAAUUGUACAUUCAGCAUUGUAAAUAAUCUUAUGAAACCUUUUUUGAUUGAAGCUAUUCAAAAUAAAAAUUUUAAUGAAUUGGAAUUCUCGGGUGCCAA | 0.862
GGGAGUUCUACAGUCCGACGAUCAUUUUUGUUUCAUUGUUUAAAAGUACUGAAAUGUUCCACCCUGUUAUGUUUUCCUGUACUAGAUGGCUAGGAUUCCAGAGAAUUACUAUAAAGUAUUUUCAACACACCUGUGGAAUUCUCGGGUGCCAA | 0.352
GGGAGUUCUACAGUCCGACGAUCUGCACAUCUGUAAAUGACUGUAUGGUUAUGAUUAUAGUACCACGAAAAAUCAUGUUAUUUUUUUUUAAGACACACACAAAAAGAUACUUAAAGACCAAAAACUGUGCUGGUGGAAUUCUCGGGUGCCAA | 0.545
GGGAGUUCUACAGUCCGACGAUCGCCGGAGACAGGGUCUGCUGGAGCUGGGAGACGGCGCUGCAGAUAGAUGGCUACAGGAGCUUUUGGACUCACAGCCUCUGCUCUAGAGGUGUUGUGUAUGGGCUGCUAAUUGGAAUUCUCGGGUGCCAA | 0.287
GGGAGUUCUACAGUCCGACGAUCGUAGUCCUAGCUACUCAGGAGGCUGAGGUGGAGGAUCACUUAAGCCUGAGAGGUCAAGGUUGCAAUGAGCCAUAAUCAUACCACUGCACUCCAGCCUGGGCAACAGAGUGUGGAAUUCUCGGGUGCCAA | 0.247
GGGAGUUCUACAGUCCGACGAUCAAGACCCCAAAGGGCCCAGGCCAGGAGACUGUUAAAGUGAAAAGGCAAUCUAUGACUCACCUUGCUCUGCCAUCCCUGGCAGCCCCCACCGGUGUCCUGUUCCUGCCACAUGGAAUUCUCGGGUGCCAA | 0.172
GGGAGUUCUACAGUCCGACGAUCGCCAAAGUUGUAGCUAAAUAUUUAUACACUUGUCUUGAAUUUUUUUCAGAUCCACUUAAAAUAUUUAGAAAAACGAGUUUUAUUCCUUAUGGGUCUUAUAGGGGAUAAAAUGGAAUUCUCGGGUGCCAA | 0.549
